Measurements from different studies.
± gives the spread as reported.
RORC: Nuclear receptor ROR-gamma (RORC, Homo sapiens, UniProt P51449)
ESR1: Estrogen receptor (ESR1, Homo sapiens, UniProt P03372)

Compound	target	test	test system	conditions	EC50 [nM]
O=S(=O)(c1cccc(C(F)(F)F)c1)N1CCc2ccc(OCc3c(F)cncc3Cl)cc21	RORC	reporter gene, agonist, GAL4 luciferase reporter		together with: ursolic acid 2 µM	760 ± 120
COc1c(O)cc2oc(-c3ccc(O)cc3)cc(=O)c2c1O	GABRA1 (Homo sapiens, UniProt P14867, G251D)	Western blot, measured: GABRA1 G251D protein level	HEK293T stably expressing α1 G251D	24 h	6200 ± 400
O=c1c(O)c(-c2cc(O)c(O)c(O)c2)oc2cc(O)cc(O)c12	ESR1	array formation, agonist	ERα-GFP PRL-HeLa	1 h	1000
Cc1nn(-c2nc3ccccc3s2)c(O)c1C(c1ccccc1C(=O)O)c1c(C)nn(-c2nc3ccccc3s2)c1O	Cyclic GMP-AMP synthase, catalytic domain; with DNA (CGAS, Homo sapiens, UniProt Q8N884)	liquid phase condensation, inhibitor			300
CCC(C)(C)C(=O)C(=O)N1CCCC[C@H]1C(=O)N[C@H](CCc1ccc(OC)cc1)C(=O)N1[C@@H]2CC[C@H]1C[C@H](Nc1nc(NCCc3sc(N)nc3C)nc(N3CCn4ncnc4C3)n1)C2	Autophagy-related protein 16-1 (ATG16L1, Homo sapiens, UniProt Q676U5, T300A)	protection from caspase-3 cleavage, AlphaLISA			12100
Cn1cc2c(C(=O)O)ccc(NS(=O)(=O)c3ccc(OCC4CCC4)c(Cl)c3)c2n1	CNR1 (Homo sapiens, UniProt P21554)	antagonist			> 10000
O=S(=O)(c1cccc(C(F)(F)F)c1)N1CCc2ccc(OCc3c(Cl)cncc3C(F)(F)F)cc21	RORC	reporter gene, agonist, GAL4 luciferase reporter		together with: ursolic acid 2 µM	600 ± 110
O=C(COP(=O)(O)O)[C@@H](O)[C@H](O)[C@H](O)COP(=O)(O)O	Pyruvate kinase PKM (PKM, Homo sapiens, UniProt P14618)	enzyme activity, activator		without AIM	52.3 ± 17.3
O=C(/C=C/c1ccccc1)c1ccccc1	ESR1	array formation, agonist	ERα-GFP PRL-HeLa	1 h	523
O=S(=O)(c1cccc(C(F)(F)F)c1)N1c2cc(OCc3c(F)cncc3Cl)ccc2CC1C(F)(F)F (stereo not drawn)	RORC	reporter gene, agonist, GAL4 luciferase reporter		together with: ursolic acid 2 µM	150 ± 20
O=c1c(O)c(-c2ccc(O)c(O)c2)oc2cc(O)ccc12	ESR1	array formation, agonist	ERα-GFP PRL-HeLa	1 h	1360
COc1ccccc1COc1ccc2c(c1)N(S(=O)(=O)c1cccc(C(F)(F)F)c1)CC2	RORC	reporter gene, agonist, GAL4 luciferase reporter		together with: ursolic acid 2 µM	620 ± 160
O=c1cc(-c2ccccc2)oc2cc(O)ccc12	ESR1	array formation, agonist	ERα-GFP PRL-HeLa	1 h	155
O=C1Nc2c(ccc(Cl)c2Cl)C1=NO	KCNN4/CALM1 (Homo sapiens, UniProt O15554+P0DP23, N201F)	ion current, activator, whole-cell patch clamp		N201F mutant	195
COc1c(O)cc2oc(-c3ccccc3)cc(=O)c2c1O	ESR1	array formation, agonist	ERα-GFP PRL-HeLa	1 h	1170
CN(C)CCC=C1c2ccccc2CCc2ccccc21	ESR1		human cells		> 100000
O=c1cc(-c2ccc(O)cc2)oc2cc(O[C@@H]3O[C@H](CO)[C@@H](O)[C@H](O)[C@H]3O)cc(O)c12	ESR1	array formation, agonist	ERα-GFP PRL-HeLa	1 h	2310
COc1cccc(S(=O)(=O)N2CCc3ccc(OCc4c(F)cccc4Cl)cc32)c1	RORC	reporter gene, agonist, GAL4 luciferase reporter		together with: ursolic acid 2 µM	650 ± 210
CC(C)CCCC(C)C1CCC2C(C(=O)O)C([C@]3(C)C=CC(=O)CC3)CC[C@]12C (stereo partly drawn)	Voltage-gated potassium channel, KQT; KCNQ2(Kv7.2)/KCNQ3(Kv7.3) (KCNQ3/KCNQ2, Homo sapiens, UniProt O43525+O43526)	G(V) shift, activator, two-electrode voltage clamp		pH 7.4	31000
O=S(=O)(c1cccc(C(F)(F)F)c1)N1c2cc(OCc3c(F)cccc3Cl)ccc2CC1C(F)(F)F (stereo not drawn)	RORC	IL-17 production, inverse agonist	HEK-293T	together with: ursolic acid	150
CC(=O)c1cc([N+](=O)[O-])c(Sc2cccc(Cl)c2Cl)s1	USP8 (Homo sapiens, UniProt P40818)	enzyme activity, inhibitor			> 50000
CCCCCCCP(=O)(C(C)C)C(C)C	Trpm8 (Rattus norvegicus, UniProt Q8R455)	calcium influx, agonist, calcium imaging		25 °C	1620 ± 630
O=S(=O)(c1cccc(C(F)(F)F)c1)N1CCc2ccc(OCc3c(Cl)ccnc3Cl)cc21	RORC	reporter gene, agonist, GAL4 luciferase reporter		together with: ursolic acid 2 µM	160 ± 30
CN1CCC(c2c(O)cc(O)c3c(=O)cc(-c4ccccc4Cl)oc23)C1CO (stereo not drawn)	ESR1	array formation, agonist	ERα-GFP PRL-HeLa	1 h	2790
COc1cc(F)c([C@@H]2CNC(=O)[C@H]2NC(=O)Nc2ccccc2)c(F)c1	Formyl peptide receptor 2 (Rattus norvegicus, UniProt A0A8I6AM80)	β-arrestin1 recruitment, agonist, BRET	HEK293 expressing rat FPR2		47
COc1ccc(-c2oc3c(CC=C(C)C)c(O)cc(O)c3c(=O)c2O[C@@H]2O[C@@H](C)[C@H](O)[C@@H](O)[C@H]2O)cc1	ESR1	array formation, agonist	ERα-GFP PRL-HeLa	1 h	1290
O=S(=O)(c1cccc(C(F)(F)F)c1)N1CCc2ccc(OCc3c(Cl)cncc3Cl)cc21	RORC	reporter gene, agonist, GAL4 luciferase reporter		together with: ursolic acid 2 µM	450 ± 100

A few entries again:
Compound	target	test	test system	conditions	EC50 [nM]
COc1ccccc1COc1ccc2c(c1)N(S(=O)(=O)c1cccc(C(F)(F)F)c1)CC2	RORC	reporter gene, agonist, GAL4 luciferase reporter		together with: ursolic acid 2 µM	620 ± 160
O=c1cc(-c2ccccc2)oc2cc(O)ccc12	ESR1	array formation, agonist	ERα-GFP PRL-HeLa	1 h	155
O=C1Nc2c(ccc(Cl)c2Cl)C1=NO	KCNN4/CALM1 (Homo sapiens, UniProt O15554+P0DP23, N201F)	ion current, activator, whole-cell patch clamp		N201F mutant	195
